# Measured values of several laboratories.
# A part holds a random share of what one study measured. Positions count from the first letter of the parent shown.

# Set 1
# Target: Ras GTPase-activating protein-binding protein 1, RRM domain (G3BP1, Homo sapiens, UniProt Q13283)
# Chain of UniProt Q13283 (whole entry, looked up): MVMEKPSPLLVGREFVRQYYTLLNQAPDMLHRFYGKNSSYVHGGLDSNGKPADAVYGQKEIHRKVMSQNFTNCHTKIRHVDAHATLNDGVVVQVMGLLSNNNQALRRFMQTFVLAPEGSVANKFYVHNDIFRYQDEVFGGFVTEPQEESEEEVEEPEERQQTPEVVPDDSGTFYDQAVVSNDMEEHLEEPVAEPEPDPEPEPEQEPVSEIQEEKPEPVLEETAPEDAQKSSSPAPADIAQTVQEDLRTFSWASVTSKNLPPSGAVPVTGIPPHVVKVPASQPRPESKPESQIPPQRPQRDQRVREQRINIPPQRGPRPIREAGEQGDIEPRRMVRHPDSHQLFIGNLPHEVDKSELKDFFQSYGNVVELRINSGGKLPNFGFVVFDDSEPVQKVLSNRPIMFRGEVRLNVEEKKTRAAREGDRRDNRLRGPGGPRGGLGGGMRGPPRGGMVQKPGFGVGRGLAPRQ
# Method: RNA Bind-n-Seq
# Molecule type: RNA
# Medium: in vitro
# Tested at: 1 µM
# Setting: whole 134-nt RNA, ends assumed
# Added: 150 mM KCl
# Relative to: input library
# Direction: higher = stronger binding
# Shared flanks, not repeated: GGGAGUUCUACAGUCCGACGAUC … UGGAAUUCUCGGGUGUCAAGG
Oligonucleotide,log2 enrichment
UUCGAAGAGGUUGUGUACCAGGCCAUGGGUGAGUGCCCGGGCCACCGAGGCCACGUGCCUCCACGAGGGGCUGCCUAUGCCCCACCCUGG,-0.617
AGUCCUGUGCUACACAUCGUAUGUACCGAAUCGGGUUUUGGGGUUUUGGGGUUUUGGAAAGUAUUAUGUUACGCCGUUCGGAUCUGCACU,-0.235
CUCAAGUCCUGUGCUACACAUCGUAUGUACCGAAUCGGUUUGGUGGUUUUUGGAAAGUAUUAUGUUACGCCGUUCGGAUCUGCACUUCCA,-0.21
UGGACUUGCGGGUUCCCAUCUGGGACCAGGACAUACAGUUUCUCCCAGGAUCACAGAAGCUUGUCACCUGCACAGGGUACCACCAGGUAA,-0.291
CCACCAUGACCCCUGACGGUCUGGCUGUGACCCCAACGCCGGUGCCCGUGGUCGGGAGCCAGAUGACCAGACAAGCCCGGCGCCUCUACG,-0.66
UGUGCUACACAUCGUAUGUACCGAAUCGGGGCCCCCCCGGGGCCCCCCCGGGCCCCCCCGGGAAAGUAUUAUGUUACGCCGUUCGGAUCU,-0.523
GUCCUGUGCUACACAUCGUAUGUACCGAAUCGGAAAAAGGGGAAAAAGGGGAAAAAGGGAAAGUAUUAUGUUACGCCGUUCGGAUCUGCA,0.281
GUCCUGUGCUACACAUCGUAUGUACCGAAUCGGGUUUGGGUUUUUUUGGGUUUUUGGGAAAGUAUUAUGUUACGCCGUUCGGAUCUGCAC,0.378
UCCUGUGCUACACAUCGUAUGUACCGAAUCGGGGAAAAAAGGAAAAAAGGGGAAAAAAGGAAAGUAUUAUGUUACGCCGUUCGGAUCUGC,0.0415
UCAAGUCCUGUGCUACACAUCGUAUGUACCGAAUCGGAAGGGAAGGGGAAGGGGAAAGUAUUAUGUUACGCCGUUCGGAUCUGCACUUCC,0.289
UGGGAGGUGGAUUUUGUUUAUUUUUUUAGCUCAUUUCCAGGGGUGGGAAUUUUUUUUUAAUAUGUGUCAUAAAUAAAGUUGUUUUUGAAA,1.78
CUCAAGUCCUGUGCUACACAUCGUAUGUACCGAAUCGGGGCGGGCGGGCGGGGAAAGUAUUAUGUUACGCCGUUCGGAUCUGCACUUCCA,0.349
CUCAAGUCCUGUGCUACACAUCGUAUGUACCGAAUCGGGCCGGCCGGGGCCGGAAAGUAUUAUGUUACGCCGUUCGGAUCUGCACUUCCA,-0.341
UCAAGUCCUGUGCUACACAUCGUAUGUACCGAAUCGGGGUUGGUUGGGUUGGGGAAAGUAUUAUGUUACGCCGUUCGGAUCUGCACUUCC,0.0839

# Set 2
# Target: Hepatocyte nuclear factor 3-alpha (Foxa1, Mus musculus, UniProt P35582, residues 1-468, full length assumed)
# Chain of UniProt P35582 (whole entry, looked up): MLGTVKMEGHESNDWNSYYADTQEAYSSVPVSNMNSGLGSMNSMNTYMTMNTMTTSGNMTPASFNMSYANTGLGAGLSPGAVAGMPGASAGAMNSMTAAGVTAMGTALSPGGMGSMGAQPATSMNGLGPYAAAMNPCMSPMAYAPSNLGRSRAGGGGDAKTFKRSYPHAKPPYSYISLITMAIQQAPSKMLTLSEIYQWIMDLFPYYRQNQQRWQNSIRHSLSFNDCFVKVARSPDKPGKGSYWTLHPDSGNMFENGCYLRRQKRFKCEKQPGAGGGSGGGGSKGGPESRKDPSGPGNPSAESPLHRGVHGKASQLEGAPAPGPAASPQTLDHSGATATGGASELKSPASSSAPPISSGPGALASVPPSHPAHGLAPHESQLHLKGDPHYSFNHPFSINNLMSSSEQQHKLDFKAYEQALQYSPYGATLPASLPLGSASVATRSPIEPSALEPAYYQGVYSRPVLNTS
# Method: EMSA with sequencing
# Molecule type: double-stranded DNA, one strand shown
# Medium: in vitro
# Tested at: 10 and 20 nM
# Setting: whole designed probe, mean of two concentrations, ends assumed
# Relative to: negative control set to 0
# Direction: higher = stronger binding
# Shared flanks, not repeated: GTGAGCGGTGCCCATTGATGGGGAAC … TTTCACTGGGATCGTGGGGAC
Oligonucleotide,normalised bound fraction
ATTCAACTTAGACATCACAGGCAAAAAATAGAATGGGAAATGTAAAAAGTTTACCAGGTGTAATTGAATGAAGGACAAGTTTCCTAATCTCTTGTTTACTCTGTTGGAGATATATTTAGGAGAATTTCCTAGTCTGCTTTATAACTTCCTCTTTGGCCACTATCTTGACCTGGAATAATTACAAAAAGAATGT,0.325 ratio
GCAGACCGGCTCCACCGTGCCTTCTGGCCCTGAAGGGCTGGGCAGGTCCACGCCCTGCACCCTGGAGCTCCCCGGGGAGGGCGGGTGTAGGAATGTTTGCCCAGTGAGTGGACAGACGTTTACACAGCGGGATTTATAACCCACATCAGACGTCAACTCCGGGAGAAAGGGAGCTGTCCGCCCAGCCTCGAGC,0.211 ratio
TTCTTTTAAAAATCACTTTATTCTTTTAAAAGCTTAAATTTTGACCCATAAAATAATGCACAAATAATCCTCTAATCGTTTTAAAAGGACCTGTTGTTTACTTTGAAATGATATTAATGCTTTTAAAATTTTAAGTCAATTTTTTCCCTTCACTTCAGAATGCTATTCATGTTTAGATAGCTAATCTTACACA,0.381 ratio
TGTTCTGAAAGCATTGGGATGCATCCATGTTTTGCGTACAGACCCCCTTCTGTCTGGTGCACTCTGCCCTCTAAAAGCTTCCTGAATTGCTTTGTAATCTAGGCAGCTACTACAGCTGCAACTGTTGGGTTTGGACTTTTGCCAGCTTGAAATTTATCCCTGCCCTAATGCTATATATCTGGGAGCAGGCAGT,-0.0816 ratio
GGACACAGCCAGAGGCCATGAGTGCTCAGGAGTGCCATAAACTGTGATTTTGAGACTGATAAGGCCAGGCTAAATAGCTTGCTGGGTGTGTCTAGATTGCCTTTTTATATTTGAGGCCTATAAAAAAATAGTGAGAAAATAGCAAGATGCCCAGGAGACAGGTGATCTGATTCAGCCAGGGGGTGGGAGGTGG,-0.0763 ratio
TGGGCTGTCCTTGGACAGGGCCATGGGATGCCACTTCCCTCTCTCTCCCTTTGGCAGAGAGCCCTCGGAAACAGGAGTTATTGAGAAACCAAAAGTAAACAGCTCAGCCTCTCCCCGGGGCCTGTGGAGCCTGTTGCCCCGGATGGATGGGGTTAGTGCCAGCAGCTGCTCAGATGATCTGTGGGGCATGTTC,0.29 ratio
TGGGGTAAAGAGCCCTCACCCTGCCTGCCACACACTGGTAGTGTCAGATAACATTGAAGGGTGTTAGTTTAAAGGCTTCATGGACTCTATAATGTCATCTAAAGTGCTGTTAACTTTCTTCTGGGTCTCAGGCTCCTGATGTAGAGTCAGTGGAGCAACCCTGCCATCTGCTGTTATGCTGTTGATGTTGCTG,0.0811 ratio
ATCTTCCCCCTCTTCCTTGCCCCACCAGCTCACCTACGGGGGTTATTTGCACAAAGGAAAATAAATAAAGCCGGCATTCGTTAACGCAGTTCACGCGCATACTGCTGTTTGCTCTGGATGAATCATGGTCCTTTGGCGAGGCGTGGCTCCGGGAGAGCAAAGCACCGTGTCAGGGCCATGATCCGGGCTCGCC,0.392 ratio

# Set 3
# Target: ABI1, truncated, D143A, DHFR fusion (Arabidopsis thaliana)
# Method: DHFR PCA, deep sequencing
# Medium: yeast
# Setting: methotrexate growth selection, single substitutions
# Added: (+)-ABA 17 µM
# Relative to: wild-type fitted maximum
# Direction: higher = stronger binding
# Starting sequence: PYL1, truncated, DHFR fusion (Arabidopsis thaliana); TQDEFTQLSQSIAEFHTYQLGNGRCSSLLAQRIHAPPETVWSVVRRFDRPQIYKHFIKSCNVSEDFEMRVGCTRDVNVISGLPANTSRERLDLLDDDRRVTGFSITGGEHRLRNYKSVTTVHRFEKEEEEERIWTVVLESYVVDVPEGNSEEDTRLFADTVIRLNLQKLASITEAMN; partner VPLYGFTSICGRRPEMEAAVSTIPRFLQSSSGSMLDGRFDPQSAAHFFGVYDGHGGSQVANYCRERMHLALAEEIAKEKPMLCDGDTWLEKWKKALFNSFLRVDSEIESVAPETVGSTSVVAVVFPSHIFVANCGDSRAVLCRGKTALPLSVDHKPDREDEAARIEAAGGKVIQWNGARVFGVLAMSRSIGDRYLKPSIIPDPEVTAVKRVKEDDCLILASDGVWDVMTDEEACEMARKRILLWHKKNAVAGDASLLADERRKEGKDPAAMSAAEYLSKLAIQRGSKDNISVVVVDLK
Variant,relative binding score [%]
N22R,83.7
V78E,15.5
F56C,33.5
R132L,82.6
I33K,-18.4
V70L,56.1
A170R,89.3
P83E,19.7
V143T,66.7
T6S,85.9
L82I,82.4
P83T,19.8
T73A,54.8
Q19K,84.1
L164H,83.6
V161Q,4.92
E129N,82.9
K54V,-7.3
V70Q,54.3
E125Y,87.6
M176R,83.5
H16D,-8.96
L82V,60
I172L,85.6
E147G,63.3

# Set 4
# Target: RNA binding protein fox-1 homolog 2, RRM domain, GST-SBP tag (RBFOX2, Homo sapiens, UniProt O43251-10, residues 100-194)
# Method: RNA Bind-n-Seq
# Molecule type: RNA
# Medium: in vitro
# Tested at: 365 nM
# Setting: natural RNA segment, single round, ends assumed
# Relative to: no-protein control
# Direction: higher = stronger binding
# Shared flanks, not repeated: GGGAGUUCUACAGUCCGACGAUC … UGGAAUUCUCGGGUGCCAA
# Target sequence (chain): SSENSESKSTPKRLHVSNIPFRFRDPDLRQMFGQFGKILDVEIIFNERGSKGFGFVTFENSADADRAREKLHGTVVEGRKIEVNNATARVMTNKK
Oligonucleotide,RBNS enrichment (R)
ACUGGCUAGGCUGCUUCAGUUUACAACAGGCUCUUCUCAGCUCCCACCUGGAGGAUUUGCUGCCCUCUGUCCCUCAUUUCAGAUUAUUGCUGCUCCAACCCAUAGCACGC,1.67
UAAUGUCUGUGGAAAAAAACUAAACAAGUCUCUGUCUCAGUUAAGAGAAAUCUAUUGGUCUGAAGGUUUCUGAACCUCUUUCUGGUUCUCAGCAGAAGUAACUGAAGUAG,0.449
AUUGUAAAGAAACGGAAAAAGUCACAAAAAAGUUUGUAUAAAGACAUAUUUUUGUACUACAUGGGGACUCUUCCUGCAUGUCAGCAAUAAAACUUCCUGAUCUGGAACCA,2.52
AAGCCUCAGGUGUCAGAGAGUAAGCUAUAGUGAAAGAUGCCUGGCUCGGCCUGGGGCUAAAAGGACUUUGCACUGCCAUUUCUGAGGCAGGAGUCACAGUUGAGAGCUGG,0.89
UCCUAGUAGGGGUACCACUGAAUCUGUACAGAGCCGUAAAAACUGAAGUUCUGCCUCUGAUGUAUUUUGUGAGUUUGUUUCUUUGAAUUUUCAUUUUACAGUUACUUUUC,0.58
UGACUGCUAGCUUCCCACAGAUCCAUGUCUAGAAUACCAGUGUGCUCAGGAAAAGGAAGUCAUUUCGUGUUUGUUUCCCACCAAAGAAGAAUGAAUCCAGGGUUUUUCUA,0.821
GCUUGUAUGUUACCAUACAGCUGACAUGUAUUUUUUGUCUAUUCUUUAUUAUCUUAGUAGUUUCAUGCUGUGUAUGUACCAUAACCAACCUAUUGCCUAUGAGAAACAUG,0.811
AAACUAUUGUCCAUUAACAUGAUAUGCUAAACAUUCUAUAAACAUUCUUGUAUUUAUGUGAGACUUGCCCAUCUACUGUCUUGGCUGUGUCUUGCCUUUUAAUCAUGAAC,0.532
GUGUCCAUGACAUAGACCCUGCCCUUCCUCUUUGAAUUCUUCCGGGGGAAGGGGUGACUGAACUGGGAGUCCAGGGAGGGAGCUGAGGAGCCCUUACCCUCCCACCACUC,0.247
UCCCCAGGCCGCCACUGCCCUUGCCCCUUUCAUCUCCCAGCAGCCCUCAGGAGCGUCAGGAUCAUUUUCAACUCUGGUUAGGCCUCCUACCUGGGGAGGCCAGGUCACUG,0.472
UGAUGCCUGGUGGCUUACCGGACUUCUCAGUCAAUUCUGAAAGGUAUAUUUUGGGCACACAGUGAAAAGUGAGCCAUAGAUGGAGCUUCUUGCUGAUCACAUUGACACUG,0.534
UCCCUGAGUUCUGCUCUGACAUAAGGAAGUCCUCGGUGGCUGGUGCAGCGCGGCUGUGCUGUGCUGGGGAGGCAGCCGUUCCUUCGGGGGUCCUUGGGCCUGCAGUCCCC,0.271

# A few entries again (set 1):
Oligonucleotide,log2 enrichment
AGUCCUGUGCUACACAUCGUAUGUACCGAAUCGGGUUUUGGGGUUUUGGGGUUUUGGAAAGUAUUAUGUUACGCCGUUCGGAUCUGCACU,-0.235
UGGACUUGCGGGUUCCCAUCUGGGACCAGGACAUACAGUUUCUCCCAGGAUCACAGAAGCUUGUCACCUGCACAGGGUACCACCAGGUAA,-0.291
UCCUGUGCUACACAUCGUAUGUACCGAAUCGGGGAAAAAAGGAAAAAAGGGGAAAAAAGGAAAGUAUUAUGUUACGCCGUUCGGAUCUGC,0.0415
UGUGCUACACAUCGUAUGUACCGAAUCGGGGCCCCCCCGGGGCCCCCCCGGGCCCCCCCGGGAAAGUAUUAUGUUACGCCGUUCGGAUCU,-0.523
UCAAGUCCUGUGCUACACAUCGUAUGUACCGAAUCGGGGUUGGUUGGGUUGGGGAAAGUAUUAUGUUACGCCGUUCGGAUCUGCACUUCC,0.0839
CUCAAGUCCUGUGCUACACAUCGUAUGUACCGAAUCGGGCCGGCCGGGGCCGGAAAGUAUUAUGUUACGCCGUUCGGAUCUGCACUUCCA,-0.341
UGGGAGGUGGAUUUUGUUUAUUUUUUUAGCUCAUUUCCAGGGGUGGGAAUUUUUUUUUAAUAUGUGUCAUAAAUAAAGUUGUUUUUGAAA,1.78
UCAAGUCCUGUGCUACACAUCGUAUGUACCGAAUCGGAAGGGAAGGGGAAGGGGAAAGUAUUAUGUUACGCCGUUCGGAUCUGCACUUCC,0.289
GUCCUGUGCUACACAUCGUAUGUACCGAAUCGGAAAAAGGGGAAAAAGGGGAAAAAGGGAAAGUAUUAUGUUACGCCGUUCGGAUCUGCA,0.281
